Assay results of several laboratories.
Parts stem from different laboratories: compare values within a part only. Changes are numbered by the printed parent chain.

Block 1
Target: ABI1, truncated, D143A, DHFR fusion (Arabidopsis thaliana)
Technique: DHFR PCA, deep sequencing
Matrix: yeast
Setting: methotrexate growth selection, single substitutions
Together with: (+)-ABA 0.11 µM
Baseline: wild-type fitted maximum
Direction: higher = stronger binding
Parent: PYL1, truncated, DHFR fusion (Arabidopsis thaliana); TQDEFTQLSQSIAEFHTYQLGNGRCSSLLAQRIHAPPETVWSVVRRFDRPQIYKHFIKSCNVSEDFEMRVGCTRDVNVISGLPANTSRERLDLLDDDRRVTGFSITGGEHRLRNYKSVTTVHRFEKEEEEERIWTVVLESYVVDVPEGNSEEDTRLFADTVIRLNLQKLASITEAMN
Substitution | relative binding score [%]
L169S | -3.55
E174Y | 5.16
I133W | 11.9
S140V | 3.05
V62S | 0.744
A158Q | 16.1
E38P | 1.88
L82D | 8.78
L138G | -1.02
V137H | -9.43
S11G | 6.2
Q51K | 1.74
L93R | 8.67
T119E | -12
E151Q | 24.5
V121C | -8.5
I172D | -13.2
L93Q | 5.39

Block 2
Target: Centromere-binding protein 1, full length, His-tagged (CBF1, Saccharomyces cerevisiae, UniProt P17106, residues 1-351)
Sequence of UniProt P17106 (whole entry, looked up): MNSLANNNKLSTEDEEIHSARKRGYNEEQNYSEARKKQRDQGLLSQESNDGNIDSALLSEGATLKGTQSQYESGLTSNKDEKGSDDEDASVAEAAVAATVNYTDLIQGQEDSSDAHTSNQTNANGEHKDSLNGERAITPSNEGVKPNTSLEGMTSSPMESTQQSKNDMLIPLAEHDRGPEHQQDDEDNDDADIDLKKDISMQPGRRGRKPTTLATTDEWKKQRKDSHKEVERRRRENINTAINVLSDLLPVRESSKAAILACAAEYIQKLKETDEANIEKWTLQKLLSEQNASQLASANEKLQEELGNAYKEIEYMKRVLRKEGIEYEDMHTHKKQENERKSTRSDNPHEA
Technique: competition protein-binding microarray
Form: double-stranded DNA, one strand shown
Matrix: in vitro
Concentration: 2 µM
Setting: whole 60-bp probe, lowest competitor level
Together with: Pho4 competitor, 0.05 µM
Direction: higher = stronger binding
Strand | fluorescence intensity
CTTTCCCGATCTTGCCAGGTGGGTGTAGCACATTTGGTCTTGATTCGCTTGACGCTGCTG | 65.7 a.u.
TGAAAAATCTGAGACAACGTGCCAGTTTGTAAGTGCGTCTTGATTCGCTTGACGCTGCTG | 190 a.u.
CGTCCTAGTGATTGGCGGGTGGGTGCCATGAGGAAGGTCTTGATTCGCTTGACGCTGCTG | 69.6 a.u.
GTCTTGTCTCATTGGCCCGTGGGTGTCCCCACTTCAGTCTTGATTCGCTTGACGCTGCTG | 86.9 a.u.
TGTCTTGTAATACCTTTTTTTTTAACTTTTTCAAGAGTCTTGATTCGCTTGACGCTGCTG | 75.9 a.u.
CAAACTGAGACCTTCCACGTTGTGGGCACCACCACTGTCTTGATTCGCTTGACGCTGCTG | 61.9 a.u.
TGCGTAAAAAAAAGACACATGTGAGACGCAGGAAAAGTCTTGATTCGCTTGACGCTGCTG | 187 a.u.
CCGGGAAATCGCTGGCACGCACAGCATATAGAGTAGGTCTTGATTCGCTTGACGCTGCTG | 74.5 a.u.
TGCGCAACAACTTGTCAAGTGGGTGTATGTCTAGAAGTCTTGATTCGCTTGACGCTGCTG | 67.9 a.u.
TTACTTTTAATCGATGACATGATAAGTTTCTTTTGAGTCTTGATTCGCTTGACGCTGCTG | 74.3 a.u.
CTTTCCCGATCTTGCTTTGTGGGTGTAGCACATTTGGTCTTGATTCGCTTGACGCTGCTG | 65.9 a.u.
TGGACAGCGCTTCCCAGCGTGCTTTACATAATGCTTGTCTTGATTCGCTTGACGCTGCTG | 77.8 a.u.
CTAACGAAGGTTTGTTCTGTGGGTGACAAGCCAAGTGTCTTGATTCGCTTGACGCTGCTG | 72.2 a.u.
TTTTACAGCTGCAATCAGGTGGATTCGTTTCTTCGAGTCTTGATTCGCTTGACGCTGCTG | 105 a.u.
TTGGTATTTGCCATGCAGGTGATAGTGTTATGGGTTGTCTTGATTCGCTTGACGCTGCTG | 125 a.u.
AAATTACTAAGTTGCCGCGTGGGTGACGCCGTATGAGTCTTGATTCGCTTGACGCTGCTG | 86.7 a.u.
CGGGGTTAAGTTTGCTATGTGGGTGGCTTGCAGCAGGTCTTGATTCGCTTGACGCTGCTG | 74.2 a.u.
GAGATTGACCTGTGTCTCGTGCTTTTCTTCCGCCTTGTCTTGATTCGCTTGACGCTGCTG | 157 a.u.
TTTCATCACTATTTGCACGCTCTTTCCAAAGCTCCTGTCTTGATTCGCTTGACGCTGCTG | 80.8 a.u.

Block 3
Molecule: PhoQ, residues 284 288 289 292 302 303 SASVAL
Technique: Sort-seq
Measured: YFP reporter
Matrix: E. coli
Setting: PhoQ-PhoP variant library
Together with: 10 µM Mg2+
Baseline: high Mg2+ state
Direction: higher = stronger signaling
target | fold induction
PhoP, residues 12 14 15 18 19 HHYTI (Escherichia coli, UniProt P23836) | 1.05
PhoP, residues 12 14 15 18 19 AYFRS (Escherichia coli, UniProt P23836) | 20.6
PhoP, residues 12 14 15 18 19 SFCSL (Escherichia coli, UniProt P23836) | 15.6

Block 4
Target: CEP164, C-terminal peptide (human)
Technique: DHFR complementation, deep sequencing
Matrix: yeast
Setting: single substitutions, model-inferred values
Baseline: wild type
Direction: higher = weaker binding
Parent: PDZK1, PDZ domain 2 (human); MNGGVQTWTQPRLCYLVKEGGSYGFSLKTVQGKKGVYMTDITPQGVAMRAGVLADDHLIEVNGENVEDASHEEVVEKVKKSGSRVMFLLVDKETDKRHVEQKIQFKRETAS; partner HNRVKVYRF
Substitution | binding free energy change [kcal/mol]
S83Y | 0.135
Q10E | -0.0405
R49T | 0.322
V46H | 0.896
L88Q | 0.109
S70F | -0.00535
K34C | 0.372
T94H | -0.0683
V36M | -0.304
G82L | 0.641
S70Y | 0.0793
V61Q | 0.98
L88C | -0.0255
E73P | 0.947
I41T | 0.991
K80W | 0.833
E19V | 0.249
I103T | -0.0998
K102V | -0.018
C14S | 0.555
K33C | 0.044
E108K | -0.355
E76S | 0.0829
I103Q | -0.107
T109Q | -0.123

Block 5
Target: Sal-like protein 4, full length isoform A (SALL4, Homo sapiens, UniProt Q9UJQ4, residues 1-1053)
Sequence of UniProt Q9UJQ4 (whole entry, looked up): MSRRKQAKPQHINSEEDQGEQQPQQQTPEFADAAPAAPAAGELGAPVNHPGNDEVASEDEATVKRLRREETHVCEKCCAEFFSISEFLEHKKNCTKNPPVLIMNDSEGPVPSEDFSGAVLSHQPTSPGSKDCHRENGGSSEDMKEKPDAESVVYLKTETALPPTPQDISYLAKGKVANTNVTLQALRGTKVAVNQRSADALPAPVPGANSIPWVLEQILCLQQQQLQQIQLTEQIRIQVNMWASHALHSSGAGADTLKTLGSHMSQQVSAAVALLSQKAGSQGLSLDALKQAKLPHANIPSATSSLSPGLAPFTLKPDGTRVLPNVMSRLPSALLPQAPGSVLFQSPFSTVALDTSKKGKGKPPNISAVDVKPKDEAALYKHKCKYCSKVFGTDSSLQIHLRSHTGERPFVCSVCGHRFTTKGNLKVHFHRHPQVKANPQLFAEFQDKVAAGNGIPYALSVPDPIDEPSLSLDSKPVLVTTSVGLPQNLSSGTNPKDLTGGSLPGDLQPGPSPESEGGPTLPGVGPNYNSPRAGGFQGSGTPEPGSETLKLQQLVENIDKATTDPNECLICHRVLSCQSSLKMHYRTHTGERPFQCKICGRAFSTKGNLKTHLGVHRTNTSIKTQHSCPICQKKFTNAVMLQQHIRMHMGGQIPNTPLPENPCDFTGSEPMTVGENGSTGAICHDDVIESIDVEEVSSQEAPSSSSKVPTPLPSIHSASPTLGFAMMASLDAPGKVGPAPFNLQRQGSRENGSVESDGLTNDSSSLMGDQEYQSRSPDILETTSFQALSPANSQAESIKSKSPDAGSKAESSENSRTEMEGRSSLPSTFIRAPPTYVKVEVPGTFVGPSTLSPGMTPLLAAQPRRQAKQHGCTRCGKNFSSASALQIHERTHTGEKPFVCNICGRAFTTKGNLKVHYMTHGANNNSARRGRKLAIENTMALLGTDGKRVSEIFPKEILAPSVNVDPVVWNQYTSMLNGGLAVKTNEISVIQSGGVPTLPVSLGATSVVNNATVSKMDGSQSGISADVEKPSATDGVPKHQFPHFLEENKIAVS
Technique: universal PBM
Form: double-stranded DNA, one strand shown
Matrix: in vitro
Concentration: 600 nM
Setting: 8-mer, flanks averaged, mean of replicates
Direction: higher = stronger binding
Strand | E-score
CATGATCG | 0.127
CGAATAGA | -0.0873
CTCAAGAC | -0.09
GATCGAGA | -0.055
CAATTCGG | -0.0415
CAGGGTAG | -0.292
ACCCCGAA | -0.101
ATGCTCGG | -0.141
ATACGCTA | 0.0926
ATTTAGGG | 0.0166
ATATCCTA | 0.183
GCATGCAA | 0.0484
ACCTGTGA | -0.017
GAACCATC | -0.11
GAGCGAAC | -0.165
GAGCTGCA | -0.2
CATTTAAA | 0.259
AGTATCAA | 0.181
AGTTTTCG | 0.0789
CAGAGTCG | -0.226
GAAATTGA | 0.202
CCTCCCAA | -0.115
AGGTGTTC | -0.116
ACTTACTA | 0.0472
ACATTAGG | 0.122

Block 6
Target: CCNB1, cyclin fold, Cln2 fusion (human)
Technique: yeast growth competition, sequencing
Matrix: yeast
Setting: weak parent motif
Baseline: not given
Direction: higher = stronger binding
Parent: WEE1 docking peptide (human); HKTFRKLRLFDTP
Substitution | normalised enrichment score
HITFRKLRLFDTP [K2I] | -0.124
HKTFPKLRLFDTP [R5P] | -0.246
HKTFRKQRLFDTP [L7Q] | 1.38
HKTFRKVRLFDTP [L7V] | 0.137
HKTFEKLRLFDTP [R5E] | 1.88
HKTFRKLRLFDFP [T12F] | 0.818
HKTFRKLRKFDTP [L9K] | 0.854
HKTFRKLRLFDEP [T12E] | 0.572
HKTFRKLRLFDTI [P13I] | 0.125
HLTFRKLRLFDTP [K2L] | 0.375
HKTFRKLRLFDTE [P13E] | 0.386
HKTFRKLCLFDTP [R8C] | 0.495
HKTFRKLRLFVTP [D11V] | 0.611
HKTFRKLRAFDTP [L9A] | 1.18
HKKFRKLRLFDTP [T3K] | -3.91
HKTFRKLRLFDTH [P13H] | 0.133
HKWFRKLRLFDTP [T3W] | -0.276
HKTFRSLRLFDTP [K6S] | 0.32
HKTSRKLRLFDTP [F4S] | 0.736
HKTHRKLRLFDTP [F4H] | 1.09
HKTFRKLRLYDTP [F10Y] | -0.287
GKTFRKLRLFDTP [H1G] | 0.364
SKTFRKLRLFDTP [H1S] | 1.85
HKTFRKLRLFQTP [D11Q] | 2.59
CKTFRKLRLFDTP [H1C] | 0.644

For quick reference, copied from above (block 1):
Substitution | relative binding score [%]
L93Q | 5.39
T119E | -12
A158Q | 16.1
E151Q | 24.5
S11G | 6.2
V137H | -9.43
L82D | 8.78
I172D | -13.2
E174Y | 5.16
E38P | 1.88
V62S | 0.744
